{"data": "Experimental data collected from several papers", "GABA-A receptor; alpha-1/beta-3/gamma-2": "GABA-A receptor; alpha-1/beta-3/gamma-2 (Homo sapiens, UniProt P14867+P18507+P28472)", "note": "Lines come from different studies, so protocols differ. Values joined by “and” are separate records of one study, mostly repeats; a detail may differ. ± marks the error that the study gave.", "sequence of UniProt P18507 (whole entry, looked up)": "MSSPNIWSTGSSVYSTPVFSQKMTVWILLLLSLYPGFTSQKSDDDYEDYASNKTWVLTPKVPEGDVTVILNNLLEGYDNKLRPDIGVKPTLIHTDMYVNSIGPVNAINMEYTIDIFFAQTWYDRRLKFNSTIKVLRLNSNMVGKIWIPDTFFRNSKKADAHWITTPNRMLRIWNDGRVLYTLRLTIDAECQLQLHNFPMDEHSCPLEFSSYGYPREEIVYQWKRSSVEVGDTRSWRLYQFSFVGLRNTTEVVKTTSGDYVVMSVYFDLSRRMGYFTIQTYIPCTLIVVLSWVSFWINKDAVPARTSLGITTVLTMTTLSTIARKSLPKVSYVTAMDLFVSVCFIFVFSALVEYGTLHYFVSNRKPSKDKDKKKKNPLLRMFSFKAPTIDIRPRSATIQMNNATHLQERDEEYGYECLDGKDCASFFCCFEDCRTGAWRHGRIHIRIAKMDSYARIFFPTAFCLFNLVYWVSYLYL", "sequence of UniProt P28472 (whole entry, looked up)": "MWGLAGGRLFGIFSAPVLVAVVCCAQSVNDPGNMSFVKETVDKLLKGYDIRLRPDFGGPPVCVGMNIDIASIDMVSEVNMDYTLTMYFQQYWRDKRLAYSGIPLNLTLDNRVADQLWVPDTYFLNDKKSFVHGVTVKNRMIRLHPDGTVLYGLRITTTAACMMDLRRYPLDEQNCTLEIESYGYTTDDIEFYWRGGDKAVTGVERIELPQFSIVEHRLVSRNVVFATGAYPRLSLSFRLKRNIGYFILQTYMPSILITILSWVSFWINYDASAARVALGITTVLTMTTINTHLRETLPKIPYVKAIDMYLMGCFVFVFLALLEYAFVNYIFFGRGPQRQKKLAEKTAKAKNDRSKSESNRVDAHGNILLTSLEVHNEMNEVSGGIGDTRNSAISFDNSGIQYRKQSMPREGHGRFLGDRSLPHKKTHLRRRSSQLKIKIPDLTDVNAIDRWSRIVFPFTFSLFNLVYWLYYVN", "sequence of UniProt Q01959 (whole entry, unmodified, looked up)": "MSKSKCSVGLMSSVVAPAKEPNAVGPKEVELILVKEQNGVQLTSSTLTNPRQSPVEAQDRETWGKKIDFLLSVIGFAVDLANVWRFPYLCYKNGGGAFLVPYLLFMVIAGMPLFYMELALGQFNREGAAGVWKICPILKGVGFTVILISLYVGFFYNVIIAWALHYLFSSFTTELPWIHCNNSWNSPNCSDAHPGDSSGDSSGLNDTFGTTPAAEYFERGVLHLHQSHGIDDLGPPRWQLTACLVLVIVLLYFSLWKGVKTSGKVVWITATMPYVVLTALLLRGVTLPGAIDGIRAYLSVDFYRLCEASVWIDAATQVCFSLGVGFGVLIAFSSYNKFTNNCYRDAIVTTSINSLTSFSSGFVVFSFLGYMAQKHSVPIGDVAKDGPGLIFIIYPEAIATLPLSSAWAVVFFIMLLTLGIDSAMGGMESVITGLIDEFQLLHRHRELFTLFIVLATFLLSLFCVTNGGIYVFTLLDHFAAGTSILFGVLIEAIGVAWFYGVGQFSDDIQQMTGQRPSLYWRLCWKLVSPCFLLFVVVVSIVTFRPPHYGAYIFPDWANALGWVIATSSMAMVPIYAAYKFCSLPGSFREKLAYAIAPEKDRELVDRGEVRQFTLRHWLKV", "sequence of UniProt P14867 (whole entry, looked up)": "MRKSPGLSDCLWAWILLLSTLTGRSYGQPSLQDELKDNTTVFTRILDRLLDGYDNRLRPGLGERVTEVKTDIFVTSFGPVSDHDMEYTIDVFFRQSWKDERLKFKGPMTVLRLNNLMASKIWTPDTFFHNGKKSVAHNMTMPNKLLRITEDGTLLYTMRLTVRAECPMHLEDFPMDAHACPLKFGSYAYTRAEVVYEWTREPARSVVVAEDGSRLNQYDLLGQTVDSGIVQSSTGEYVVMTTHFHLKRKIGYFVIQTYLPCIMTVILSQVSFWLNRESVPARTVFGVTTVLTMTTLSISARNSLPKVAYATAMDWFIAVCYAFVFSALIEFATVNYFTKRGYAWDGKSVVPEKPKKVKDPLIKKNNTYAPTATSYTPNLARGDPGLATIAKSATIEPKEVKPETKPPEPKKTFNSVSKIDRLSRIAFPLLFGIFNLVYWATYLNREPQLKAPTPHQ", "sequence of UniProt P28223 (whole entry, looked up)": "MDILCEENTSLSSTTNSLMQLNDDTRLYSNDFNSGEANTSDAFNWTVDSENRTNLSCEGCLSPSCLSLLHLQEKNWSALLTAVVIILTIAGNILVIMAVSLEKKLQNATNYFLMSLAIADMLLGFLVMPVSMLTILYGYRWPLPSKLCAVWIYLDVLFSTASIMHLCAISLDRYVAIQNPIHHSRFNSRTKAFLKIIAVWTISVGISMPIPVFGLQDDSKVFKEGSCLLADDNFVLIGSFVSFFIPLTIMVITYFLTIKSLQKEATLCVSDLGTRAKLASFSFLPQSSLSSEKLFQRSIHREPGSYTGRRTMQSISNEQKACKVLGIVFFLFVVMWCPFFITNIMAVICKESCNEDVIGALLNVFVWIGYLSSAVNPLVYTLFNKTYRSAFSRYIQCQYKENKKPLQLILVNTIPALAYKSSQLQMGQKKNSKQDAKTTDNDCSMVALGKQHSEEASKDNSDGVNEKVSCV", "sequence of UniProt P41143 (whole entry, looked up)": "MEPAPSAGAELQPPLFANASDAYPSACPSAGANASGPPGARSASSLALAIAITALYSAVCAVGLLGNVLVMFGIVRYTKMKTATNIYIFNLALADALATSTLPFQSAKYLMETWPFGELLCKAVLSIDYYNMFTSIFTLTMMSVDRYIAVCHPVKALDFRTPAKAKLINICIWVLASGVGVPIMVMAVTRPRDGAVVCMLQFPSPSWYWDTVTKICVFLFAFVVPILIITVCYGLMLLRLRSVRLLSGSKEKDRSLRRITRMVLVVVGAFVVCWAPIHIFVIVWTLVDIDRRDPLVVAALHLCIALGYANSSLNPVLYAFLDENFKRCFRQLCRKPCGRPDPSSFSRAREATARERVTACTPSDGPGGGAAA", "sequence of UniProt P49116 (whole entry, looked up)": "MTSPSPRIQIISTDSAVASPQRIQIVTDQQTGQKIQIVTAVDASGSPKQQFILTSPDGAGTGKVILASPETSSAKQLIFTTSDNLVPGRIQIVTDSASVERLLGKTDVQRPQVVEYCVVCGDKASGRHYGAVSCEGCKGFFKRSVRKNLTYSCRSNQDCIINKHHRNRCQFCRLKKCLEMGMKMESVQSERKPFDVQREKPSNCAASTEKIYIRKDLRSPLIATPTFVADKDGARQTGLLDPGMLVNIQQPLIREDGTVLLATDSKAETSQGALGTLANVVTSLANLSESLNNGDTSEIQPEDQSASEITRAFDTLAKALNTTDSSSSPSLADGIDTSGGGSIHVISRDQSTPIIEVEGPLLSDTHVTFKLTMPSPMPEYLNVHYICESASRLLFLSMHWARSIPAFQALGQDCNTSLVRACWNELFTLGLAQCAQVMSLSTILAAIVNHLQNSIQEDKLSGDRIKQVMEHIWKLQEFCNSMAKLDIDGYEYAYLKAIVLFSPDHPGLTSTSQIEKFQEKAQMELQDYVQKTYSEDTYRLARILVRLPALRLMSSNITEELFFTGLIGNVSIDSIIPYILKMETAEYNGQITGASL", "sequence of UniProt P21554 (whole entry, unmodified, looked up)": "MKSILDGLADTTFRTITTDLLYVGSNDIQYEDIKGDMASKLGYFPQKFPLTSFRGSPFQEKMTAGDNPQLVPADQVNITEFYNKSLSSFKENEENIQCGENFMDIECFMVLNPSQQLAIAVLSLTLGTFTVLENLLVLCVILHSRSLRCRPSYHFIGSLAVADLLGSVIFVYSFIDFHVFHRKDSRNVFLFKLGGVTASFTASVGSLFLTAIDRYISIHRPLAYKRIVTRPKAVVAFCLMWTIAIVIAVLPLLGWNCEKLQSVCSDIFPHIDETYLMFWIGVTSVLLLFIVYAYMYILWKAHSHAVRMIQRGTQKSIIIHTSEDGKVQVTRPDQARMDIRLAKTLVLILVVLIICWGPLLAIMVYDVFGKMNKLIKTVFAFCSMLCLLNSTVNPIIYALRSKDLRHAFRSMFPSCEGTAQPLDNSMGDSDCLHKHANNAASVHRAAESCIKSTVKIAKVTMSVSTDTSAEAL", "sequence of UniProt Q8NFJ6 (whole entry, looked up)": "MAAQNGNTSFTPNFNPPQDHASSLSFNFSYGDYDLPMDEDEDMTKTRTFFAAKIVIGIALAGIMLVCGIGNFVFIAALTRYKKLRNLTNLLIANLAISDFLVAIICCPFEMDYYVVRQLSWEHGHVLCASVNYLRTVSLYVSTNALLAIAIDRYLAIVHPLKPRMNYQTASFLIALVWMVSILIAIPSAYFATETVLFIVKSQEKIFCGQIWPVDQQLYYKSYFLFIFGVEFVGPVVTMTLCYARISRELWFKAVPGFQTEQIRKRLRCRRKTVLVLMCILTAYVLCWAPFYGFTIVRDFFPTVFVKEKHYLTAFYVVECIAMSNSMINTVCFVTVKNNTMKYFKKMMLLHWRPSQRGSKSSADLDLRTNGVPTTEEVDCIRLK", "sequence of UniProt P9WIL3 (whole entry, looked up)": "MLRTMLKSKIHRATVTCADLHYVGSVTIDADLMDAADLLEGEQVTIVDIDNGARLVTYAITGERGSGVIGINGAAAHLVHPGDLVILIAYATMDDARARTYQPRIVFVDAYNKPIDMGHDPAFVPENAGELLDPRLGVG", "sequence of UniProt Q92993 (whole entry, looked up)": "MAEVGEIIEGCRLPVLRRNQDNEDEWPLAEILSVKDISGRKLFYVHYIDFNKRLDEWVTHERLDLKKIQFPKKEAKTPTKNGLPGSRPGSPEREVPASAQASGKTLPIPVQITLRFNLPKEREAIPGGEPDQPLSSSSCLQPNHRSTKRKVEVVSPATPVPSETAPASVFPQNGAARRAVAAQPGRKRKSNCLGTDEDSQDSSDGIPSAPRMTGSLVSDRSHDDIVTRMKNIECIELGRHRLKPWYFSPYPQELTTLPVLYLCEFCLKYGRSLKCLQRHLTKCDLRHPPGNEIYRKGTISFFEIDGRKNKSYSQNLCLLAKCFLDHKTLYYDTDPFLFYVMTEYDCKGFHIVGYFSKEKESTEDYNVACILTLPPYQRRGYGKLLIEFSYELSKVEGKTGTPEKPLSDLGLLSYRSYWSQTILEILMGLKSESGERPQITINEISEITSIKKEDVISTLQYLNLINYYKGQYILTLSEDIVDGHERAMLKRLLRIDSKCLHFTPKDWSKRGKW"}
{"Compound": "CNC1(c2ccccc2Cl)CCCCC1=O (racemic)", "target": "glycine transporter", "test": "radioligand binding, radioligand displacement", "setting": "30 µM", "measurement": "inhibition", "value": "4%"}
{"Compound": "O=C(O)c1nccnc1NC(=O)c1cccc2ccccc12", "target": "Aspartate 1-decarboxylase (panD, Mycobacterium tuberculosis, UniProt P9WIL3)", "test": "enzyme activity", "setting": "2.5 µM, 40 min, 298 K", "measurement": "inhibition", "value": "~50%"}
{"Compound": "CC(=O)[C@H]1CC[C@H]2[C@@H]3CC[C@H]4C[C@H](O)CC[C@]4(C)[C@H]3CC[C@]12C", "target": "Genome polyprotein, NS3 helicase domain (Hepatitis C virus genotype 1b, UniProt Q9WMX2)", "test": "DNA binding, inhibitor", "test system": "hepatitis C virus", "setting": "100 µM, together with: Cy5-dT15 DNA", "measurement": "inhibition", "value": "0%"}
{"Compound": "Cc1cccc(C(C)c2cnc[nH]2)c1C (stereo not drawn)", "target": "Nuclear receptor subfamily 2 group C member 2, ligand-binding domain (Homo sapiens, UniProt P49116)", "test": "binding", "measurement": "koff", "value": "9.62e-06 s⁻¹"}
{"Compound": "CCOC(=O)c1cncn1[C@H](C)c1ccccc1", "target": "GABA-A receptor alpha-1/beta-3, with gamma-2 subunit (GABRA1/GABRB3, Homo sapiens, UniProt P14867+P28472)", "test": "[3H]muscimol binding", "setting": "concentration not given, high anaesthetic concentrations, together with: [3H]muscimol 2 nM", "scale": "reference: without compound", "measurement": "binding enhancement", "value": "250%"}
{"Compound": "Cc1ccc2c(c1)C1(CC2)C(=O)NC(=O)NC1=O", "target": "GABA-A receptor; alpha-1/beta-3/gamma-2", "setting": "300 µM", "measurement": "Emax", "value": "6%"}
{"Compound": "COc1ccc(C(=O)N[C@H]2CC[C@@]3(O)[C@H]4Cc5ccc(O)c6c5[C@@]3(CCN4CC3CC3)[C@H]2O6)s1.Cl", "target": "OPRD1 (Homo sapiens, UniProt P41143)", "test": "radioligand binding", "test system": "CHO membranes", "scale": "reference: Ki µ over Ki δ", "measurement": "selectivity ratio", "value": 19.6}
{"Compound": "CN1C(=O)NC(=O)C2(CCc3ccc(Br)cc32)C1=O (stereo not drawn)", "target": "GABA-A receptor; alpha-1/beta-3/gamma-2", "setting": "300 µM", "measurement": "Emax", "value": "40%"}
{"Compound": "Oc1ccc2c3c1O[C@H]1[C@@H](O)CC[C@@]4(O)[C@@H](C2)N(CC2CCC2)CC[C@]314", "target": "PROKR2 (Homo sapiens, UniProt Q8NFJ6)", "test": "β-arrestin recruitment, TANGO luminescence, measured: PK2", "setting": "concentration not given", "scale": "reference: basal luminescence", "measurement": "log2 fold change", "value": -0.372}
{"Compound": "CCOc1ccccc1C(=O)Nc1ccc(Cl)c(C(F)(F)F)c1", "target": "KAT5 (Homo sapiens, UniProt Q92993)", "test": "SPR", "setting": "50 µM", "scale": "higher = more binding", "measurement": "SPR binding response", "value": "1.03 RU"}
{"Compound": "CCCCCCC(C)(C)c1ccc([C@@H]2C[C@H](O)CC[C@H]2CCCO)c(O)c1", "target": "CNR1 (Homo sapiens, UniProt P21554, F170A)", "test": "cAMP inhibition, agonist, CAMYEL BRET biosensor", "setting": "together with: 10 µM forskolin", "scale": "reference: wild type receptor", "measurement": "Emax", "value": "39.8 ± 14.1%"}
{"Compound": "c1ccc2cc([C@]34CNC[C@H]3C4)ccc2c1", "target": "SLC6A3 (Homo sapiens, UniProt Q01959, V152A)", "test": "inhibitor, [3H]dopamine uptake", "setting": "100 nM, V152A mutant", "scale": "reference: no inhibitor", "measurement": "dopamine uptake", "value": "68.2% and 59.3% and 64.7%"}
{"Compound": "COc1cc(CCNCc2ccccc2)c(OC)cc1C#N", "target": "HTR2A (Homo sapiens, UniProt P28223)", "test": "agonist", "measurement": "Emax", "value": "92%"}
{"Compound": "O=C1NC(=O)C2(CCc3ccc(F)cc32)C(=O)N1", "target": "GABA-A receptor; alpha-1/beta-3/gamma-2", "setting": "300 µM", "measurement": "Emax", "value": "7%"}
{"Compound": "Cn1cc2cc(C(F)(F)c3nnc4ccc(-c5cnn(C6CC6)c5)nn34)c(F)cc2n1", "target": "MET (Homo sapiens, UniProt P08581, C1091S/C1146S/K1232C/Y1230S)", "setting": "concentration not given", "scale": "reference: wild type", "measurement": "Kd fold change", "value": "not detected"}
{"note": "A few entries again:"}
{"Compound": "COc1cc(CCNCc2ccccc2)c(OC)cc1C#N", "target": "HTR2A (Homo sapiens, UniProt P28223)", "test": "agonist", "measurement": "Emax", "value": "92%"}
